Experimental data of several laboratories.
Lines come from different studies, so protocols differ. Numbers after ± are the reported error.
Organism: human cytomegalovirus

| SMILES | test | system | setting | scale | measurement | value |
| --- | --- | --- | --- | --- | --- | --- |
| O=C(NCc1ccc(F)c(F)c1)c1cn(Cc2ccc(F)cc2)cc(O)c1=O | viral replication, GFP reporter virus | HFF | 168 h | – | EC50 | 0.74 ± 0.04 µM |
| O=P(O)(O)Oc1c2c(c(OP(=O)(O)O)c3c1C1CC3c3cc4c(cc31)C1CC4c3ccccc31)C1CC2c2cc3c(cc21)C1CC3c2ccccc21 | cryo-TEM | – | 50 µM, 30 min, 37 °C | – | virions with membrane distortion | 84.6% |
| COc1ccc(-c2coc3cc(O)cc(O)c3c2=O)cc1 | viral replication, titre reduction | HEL fibroblasts, Towne | – | – | IC50 | 15 µM |
| CC(=O)Oc1ccc(Cn2cc(F)c(=O)[nH]c2=O)cc1C1OC(c2cccc(Cl)c2)=NN1C(C)=O (stereo not shown) | cytopathic effect | HEL fibroblasts, Davis | – | – | EC50 | > 20 µM |
| CCCCCCCCCCCCCC(=O)N[C@@H](CCCNC(=N)N)C(=O)N[C@@H](CO)C(=O)N[C@@H](CCSC)C(=O)N[C@@H](CCCCN)C(=O)N[C@@H](CCCNC(=N)N)C(=O)N[C@@H](CO)C(=O)N[C@@H](CC(C)C)C(=O)N[C@H](C(=O)N1CCC[C@H]1C(=O)N[C@@H](CCCNC(=N)N)C(=O)N[C@@H](Cc1c[nH]c2ccccc12)C(=O)N[C@H](C(=O)NCC(=O)N[C@@H](CC(N)=O)C(=O)N[C@@H](CCCCN)C(=O)N[C@@H](CCCNC(=N)N)C(=O)O)[C@@H](C)CC)[C@@H](C)CC | – | HCMV-infected NHDF | concentration not given | relative to: DMSO | microtubule nucleation at Golgi | decreased |
| O=C1/C(=N\NC(=S)NN=Cc2cccs2)c2ccccc2N1Cc1ccccc1 | viral cytopathogenicity | HEL, Davis | – | – | EC50 | 11.32 ± 0.08 µM |
| CCCCCCC(CC=CCCCCCCCC(=O)OCCOCn1cnc2c(=O)[nH]c(N)nc21)OC(=O)CCCCC1SCC2NC(=O)NC21 (stereo not shown) | viral replication, plaque reduction | HFF, AD169 | – | – | EC90 | 100 µM |
| CC(=O)Oc1ccc(Cn2cc(C)c(=O)[nH]c2=O)cc1C1OC(c2cccc(Cl)c2)=NN1C(C)=O (stereo not shown) | cytopathic effect | HEL fibroblasts, AD-169 | – | – | EC50 | > 20 µM |
| O=C(NCc1ccc(Cl)cc1Cl)c1cn(Cc2ccc(F)cc2)cc(O)c1=O | viral replication, GFP reporter virus | HFF | 168 h | – | EC50 | 0.41 ± 0.02 µM |
| CC(=O)Oc1ccc(Cn2ccc(=O)[nH]c2=O)cc1C1OC(c2ccc(Cl)cc2)=NN1C(C)=O (stereo not shown) | cytopathic effect | HEL fibroblasts, Davis | – | – | EC50 | > 20 µM |
| Cc1ccc(CNC(=O)c2cn(Cc3ccc(F)cc3)cc(O)c2=O)c(F)c1 | viral replication, GFP reporter virus | HFF | 168 h | – | EC50 | 0.98 ± 0.03 µM |
| CC(=O)Oc1ccc(Cn2cc(C)c(=O)[nH]c2=O)cc1C1OC(c2ccc(Cl)cc2)=NN1C(C)=O (stereo not shown) | cytopathic effect | HEL fibroblasts, Davis | – | – | EC50 | > 20 µM |
| O=C(NCc1cccc(Cl)c1F)c1cn(Cc2ccc(F)cc2)cc(O)c1=O | viral replication, GFP reporter virus | HFF | 168 h | – | EC50 | 0.48 ± 0.03 µM |
